# Measurements pooled from the literature.
# Several values in a cell are separate wells, animals, samples, runs or records. ± gives the spread as reported.
# WD repeat-containing protein 91 residues 392–747: WD repeat-containing protein 91, residues 392–747 (Homo sapiens, UniProt A4D1P6)
# Chain of UniProt A4D1P6 (whole entry, looked up): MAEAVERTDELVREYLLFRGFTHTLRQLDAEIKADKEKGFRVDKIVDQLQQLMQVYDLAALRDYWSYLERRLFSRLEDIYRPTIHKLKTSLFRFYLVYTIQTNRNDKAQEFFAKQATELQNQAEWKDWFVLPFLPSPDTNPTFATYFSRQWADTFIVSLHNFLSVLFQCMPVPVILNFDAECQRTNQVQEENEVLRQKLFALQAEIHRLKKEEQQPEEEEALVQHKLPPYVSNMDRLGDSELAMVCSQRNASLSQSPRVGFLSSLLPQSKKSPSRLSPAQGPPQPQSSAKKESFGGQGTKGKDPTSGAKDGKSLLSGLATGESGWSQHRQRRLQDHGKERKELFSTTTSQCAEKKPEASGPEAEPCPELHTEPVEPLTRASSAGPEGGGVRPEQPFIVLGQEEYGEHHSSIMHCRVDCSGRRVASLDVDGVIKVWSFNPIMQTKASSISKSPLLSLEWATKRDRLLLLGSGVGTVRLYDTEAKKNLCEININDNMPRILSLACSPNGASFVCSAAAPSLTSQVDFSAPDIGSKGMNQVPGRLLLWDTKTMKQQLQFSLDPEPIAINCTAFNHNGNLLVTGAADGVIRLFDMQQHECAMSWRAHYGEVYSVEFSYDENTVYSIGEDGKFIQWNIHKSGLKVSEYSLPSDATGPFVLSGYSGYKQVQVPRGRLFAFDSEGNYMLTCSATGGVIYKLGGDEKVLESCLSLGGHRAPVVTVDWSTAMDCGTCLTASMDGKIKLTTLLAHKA
# MBLAC2: MBLAC2 (Homo sapiens, UniProt Q68D91)
# Chain of UniProt Q68D91 (whole entry, looked up): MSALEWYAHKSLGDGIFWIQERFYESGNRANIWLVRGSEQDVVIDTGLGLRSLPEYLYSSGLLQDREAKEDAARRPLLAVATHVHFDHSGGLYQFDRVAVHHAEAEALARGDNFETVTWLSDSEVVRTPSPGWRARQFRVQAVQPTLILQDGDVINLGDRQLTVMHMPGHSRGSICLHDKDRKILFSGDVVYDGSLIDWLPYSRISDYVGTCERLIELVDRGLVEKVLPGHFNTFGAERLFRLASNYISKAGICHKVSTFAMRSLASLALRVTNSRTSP
# PPIA: Peptidyl-prolyl cis-trans isomerase A (PPIA, Homo sapiens, UniProt P62937)
# Chain of UniProt P62937 (whole entry, looked up): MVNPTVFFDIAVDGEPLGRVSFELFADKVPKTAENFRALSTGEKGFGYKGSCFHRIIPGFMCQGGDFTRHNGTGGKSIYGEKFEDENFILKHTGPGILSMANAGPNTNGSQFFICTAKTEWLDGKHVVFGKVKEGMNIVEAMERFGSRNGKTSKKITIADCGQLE
# CDK2: Cyclin-dependent kinase 2 (CDK2, Homo sapiens, UniProt P24941)
# CDK2 with cyclin A: Cyclin-dependent kinase 2, with cyclin A (CDK2, Homo sapiens, UniProt P24941)
# Uncharacterized protein: Uncharacterized protein (Pelagibacter ubique, UniProt Q4FMA9)
# Chain of UniProt Q93009 (whole entry, unmodified, looked up): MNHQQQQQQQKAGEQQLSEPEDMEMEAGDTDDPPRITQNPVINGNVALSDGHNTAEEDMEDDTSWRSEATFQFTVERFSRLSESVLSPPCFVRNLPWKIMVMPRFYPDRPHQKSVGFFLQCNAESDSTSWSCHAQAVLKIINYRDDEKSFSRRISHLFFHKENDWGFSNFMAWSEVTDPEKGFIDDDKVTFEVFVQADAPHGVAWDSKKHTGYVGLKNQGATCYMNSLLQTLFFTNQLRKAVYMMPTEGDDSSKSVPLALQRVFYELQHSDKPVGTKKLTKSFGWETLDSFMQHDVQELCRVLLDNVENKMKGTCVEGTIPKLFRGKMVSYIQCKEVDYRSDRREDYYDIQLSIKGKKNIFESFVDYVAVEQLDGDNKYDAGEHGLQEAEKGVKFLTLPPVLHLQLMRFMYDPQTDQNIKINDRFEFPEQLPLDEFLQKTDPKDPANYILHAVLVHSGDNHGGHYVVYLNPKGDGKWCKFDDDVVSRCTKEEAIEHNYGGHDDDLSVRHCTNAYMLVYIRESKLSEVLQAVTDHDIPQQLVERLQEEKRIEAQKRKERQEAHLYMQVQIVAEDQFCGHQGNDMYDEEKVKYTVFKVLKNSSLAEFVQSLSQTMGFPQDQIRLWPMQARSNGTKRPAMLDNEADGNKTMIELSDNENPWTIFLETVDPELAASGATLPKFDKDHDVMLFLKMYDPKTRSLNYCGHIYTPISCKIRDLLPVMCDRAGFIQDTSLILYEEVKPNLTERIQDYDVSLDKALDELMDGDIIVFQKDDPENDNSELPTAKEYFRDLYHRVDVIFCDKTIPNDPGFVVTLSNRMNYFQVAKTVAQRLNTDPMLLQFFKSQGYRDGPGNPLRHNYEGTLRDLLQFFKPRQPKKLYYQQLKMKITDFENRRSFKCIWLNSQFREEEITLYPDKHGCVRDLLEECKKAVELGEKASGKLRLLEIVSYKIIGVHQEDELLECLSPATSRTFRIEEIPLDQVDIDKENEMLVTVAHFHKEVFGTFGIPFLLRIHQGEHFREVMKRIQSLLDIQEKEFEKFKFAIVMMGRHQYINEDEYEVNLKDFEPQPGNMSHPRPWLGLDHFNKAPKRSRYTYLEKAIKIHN
# Chain of UniProt Q13547 (whole entry, looked up): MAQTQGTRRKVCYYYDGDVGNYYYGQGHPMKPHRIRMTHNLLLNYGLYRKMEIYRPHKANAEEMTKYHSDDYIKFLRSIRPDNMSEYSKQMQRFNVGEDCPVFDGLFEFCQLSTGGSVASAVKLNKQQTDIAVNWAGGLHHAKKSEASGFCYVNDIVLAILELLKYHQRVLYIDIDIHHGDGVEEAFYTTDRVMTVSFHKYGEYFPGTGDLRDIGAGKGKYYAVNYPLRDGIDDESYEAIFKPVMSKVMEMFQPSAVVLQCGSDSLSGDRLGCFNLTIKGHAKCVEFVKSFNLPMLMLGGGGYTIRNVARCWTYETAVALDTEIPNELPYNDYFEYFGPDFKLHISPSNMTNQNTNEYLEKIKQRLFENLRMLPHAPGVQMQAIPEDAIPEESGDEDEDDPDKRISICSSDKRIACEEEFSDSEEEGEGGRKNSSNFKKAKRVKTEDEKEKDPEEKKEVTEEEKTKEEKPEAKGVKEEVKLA
# Chain of UniProt P19174 (whole entry, looked up): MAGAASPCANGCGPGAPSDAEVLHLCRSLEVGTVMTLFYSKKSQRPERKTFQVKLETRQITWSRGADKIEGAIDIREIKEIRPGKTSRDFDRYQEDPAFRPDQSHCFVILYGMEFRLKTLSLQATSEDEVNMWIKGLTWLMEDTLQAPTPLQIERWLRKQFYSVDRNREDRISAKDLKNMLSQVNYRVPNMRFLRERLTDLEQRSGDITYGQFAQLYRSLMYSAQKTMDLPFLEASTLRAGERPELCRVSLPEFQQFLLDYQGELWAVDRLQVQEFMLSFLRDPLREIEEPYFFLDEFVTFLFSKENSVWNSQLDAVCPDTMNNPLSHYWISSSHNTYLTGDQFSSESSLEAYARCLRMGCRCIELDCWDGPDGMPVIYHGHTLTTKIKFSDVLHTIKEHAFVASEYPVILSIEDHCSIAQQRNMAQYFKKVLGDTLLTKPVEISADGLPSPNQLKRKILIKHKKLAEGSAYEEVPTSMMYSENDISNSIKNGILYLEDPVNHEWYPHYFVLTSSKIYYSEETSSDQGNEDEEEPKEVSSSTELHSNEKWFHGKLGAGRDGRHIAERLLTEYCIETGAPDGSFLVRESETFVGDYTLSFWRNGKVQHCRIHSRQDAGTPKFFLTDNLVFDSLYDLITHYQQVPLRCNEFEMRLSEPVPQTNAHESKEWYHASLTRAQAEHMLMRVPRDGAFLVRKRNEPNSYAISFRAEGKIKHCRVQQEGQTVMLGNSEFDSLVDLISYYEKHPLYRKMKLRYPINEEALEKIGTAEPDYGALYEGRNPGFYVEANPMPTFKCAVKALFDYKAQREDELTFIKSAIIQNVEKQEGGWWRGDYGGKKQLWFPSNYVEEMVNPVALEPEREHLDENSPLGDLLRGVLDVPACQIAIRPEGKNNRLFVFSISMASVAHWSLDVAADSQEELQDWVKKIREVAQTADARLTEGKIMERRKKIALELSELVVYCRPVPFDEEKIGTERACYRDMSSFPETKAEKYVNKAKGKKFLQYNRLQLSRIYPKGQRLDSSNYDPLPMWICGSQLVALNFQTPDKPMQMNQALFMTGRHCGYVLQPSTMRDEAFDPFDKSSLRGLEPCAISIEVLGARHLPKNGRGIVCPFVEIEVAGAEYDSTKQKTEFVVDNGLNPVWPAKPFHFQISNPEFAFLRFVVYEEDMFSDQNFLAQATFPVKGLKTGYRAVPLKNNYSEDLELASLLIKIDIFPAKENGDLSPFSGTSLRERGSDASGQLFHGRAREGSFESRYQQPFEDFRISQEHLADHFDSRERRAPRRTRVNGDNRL
# Chain of UniProt O14734 (whole entry, looked up): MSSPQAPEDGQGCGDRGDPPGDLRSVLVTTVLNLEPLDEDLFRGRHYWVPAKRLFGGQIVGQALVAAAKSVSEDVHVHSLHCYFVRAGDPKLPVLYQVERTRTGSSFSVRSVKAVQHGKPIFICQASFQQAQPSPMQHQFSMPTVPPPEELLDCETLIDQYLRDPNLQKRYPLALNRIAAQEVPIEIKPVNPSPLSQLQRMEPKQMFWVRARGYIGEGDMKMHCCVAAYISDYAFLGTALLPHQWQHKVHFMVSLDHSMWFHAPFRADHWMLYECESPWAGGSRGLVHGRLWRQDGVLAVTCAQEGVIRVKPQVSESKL
# Chain of UniProt Q13557 (whole entry, looked up): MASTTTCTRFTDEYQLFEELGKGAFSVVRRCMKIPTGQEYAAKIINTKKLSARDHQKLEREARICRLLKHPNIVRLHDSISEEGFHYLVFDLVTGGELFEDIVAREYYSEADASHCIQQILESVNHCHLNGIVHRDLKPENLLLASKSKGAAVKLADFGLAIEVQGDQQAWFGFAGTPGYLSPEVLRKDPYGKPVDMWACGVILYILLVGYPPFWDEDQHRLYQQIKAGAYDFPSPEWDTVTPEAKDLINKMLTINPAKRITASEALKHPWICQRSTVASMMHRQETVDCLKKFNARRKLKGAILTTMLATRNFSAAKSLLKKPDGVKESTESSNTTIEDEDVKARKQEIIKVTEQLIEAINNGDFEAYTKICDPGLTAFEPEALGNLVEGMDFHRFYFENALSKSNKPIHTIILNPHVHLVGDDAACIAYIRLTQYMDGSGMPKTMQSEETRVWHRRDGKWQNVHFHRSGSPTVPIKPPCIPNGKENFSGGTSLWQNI
SMILES,target,test,test system,setting,Kd
N#Cc1cccc2c1CC[C@H]2NC(=O)c1ccc(SCc2cn3ccccc3n2)cc1,WD repeat-containing protein 91 residues 392–747,SPR,,,5.8 µM and 5.3 µM
CC(=O)Nc1ccc(C(=O)Nc2ccccc2N)cc1,MBLAC2,"inhibitor, competition pulldown",SW620 and MV4-11 lysate,1 h,> 30.2 µM
Nc1ncnc2c1ncn2[C@@H]1O[C@H](CO[P@](=O)(O)O[P@](=O)(O)O[P@@](=O)(O)S)[C@@H](O)[C@H]1O,"GUK1 (Homo sapiens, UniProt Q16774, N171A)","binding, ITC",,"25 °C, added: GMP",> 400 µM
O=C1C=CC(=O)N1c1cc(Cl)cc(Cl)c1,PPIA,HDX MALDI-MS,,,≤ 10 µM
Nc1ncnc2c1ncn2[C@@H]1O[C@H](COP(=O)(O)OP(=O)(O)OP(=O)(O)O)[C@@H](O)[C@H]1O,"CKMT1A (Homo sapiens, UniProt P12532, H99K)",microscale thermophoresis,,"pH 8.5, H61K mutant, no substrate",17 ± 6 µM
Nc1ncnc2c1ncn2[C@@H]1O[C@@H]2COP(=O)(O)O[C@H]3[C@@H](O)[C@H](n4cnc5c(N)ncnc54)O[C@@H]3COP(=O)(O)O[C@H]3[C@@H](O)[C@H](n4cnc5c(N)ncnc54)O[C@@H]3COP(=O)(O)O[C@H]3[C@@H](O)[C@H](n4cnc5c(N)ncnc54)O[C@@H]3COP(=O)(O)O[C@H]2[C@H]1O,Csx1–Crn2^182–563,,,,~0.062 µM
CCCC(CCC)C(=O)O,MBLAC2,"inhibitor, competition pulldown",SW620 and MV4-11 lysate,1 h,> 3020 µM
CC[C@H](CO)Nc1nc(NCc2ccc(-c3ccccn3)cc2)c2ncn(C(C)C)c2n1,"cyclin B2, human",affinity chromatography competition,SH-SY5Y cell extract,,28.2 µM
CN(C)CCNS(=O)(=O)c1ccc(N/C=C2\C(=O)Nc3ccccc32)cc1,CDK2,"average of ITC, Octet and Thermofluor",,untagged protein,3.38 µM
C[N+](C)(C)CCC(=O)c1cccc2ccccc12,PPIA,HDX MALDI-MS,,,4 µM
C#Cc1cccc(Nc2ncnc3cc(OC)c(OCCCCCCC(=O)NO)cc23)c1,MBLAC2,"inhibitor, competition pulldown",SW620 and MV4-11 lysate,1 h,1.08 µM
CN1CCN(C(=O)c2ccccc2N(Cc2ccccc2)S(C)(=O)=O)CC1,CDK2 with cyclin A,,,,> 100 µM
CCCN1CCN(c2ccc(-c3cncc(Cl)c3N3CCC4(CCNC4=O)CC3)cc2)CC1,"CAMK2D (Homo sapiens, UniProt Q13557)",SILAC displacement,LS174T-L5 cell lysate,,> 11.4 µM
CC(C)(COP(=O)(O)OP(=O)(O)OC[C@H]1O[C@@H](n2cnc3c(N)ncnc32)[C@H](O)[C@@H]1OP(=O)(O)O)[C@@H](O)C(=O)NCCC(=O)NCCS,"Acyl-coenzyme A thioesterase 8 (ACOT8, Homo sapiens, UniProt O14734)","competitor, competition MS pulldown",SW-620 cell lysate,added: photo-immobilized beads,5.29 µM
CCCCOc1ccc(CC(=O)NO)cc1,"HDAC1 (Homo sapiens, UniProt Q13547)","inhibitor, competition pulldown",SW620 and MV4-11 lysate,1 h,> 30.2 µM
COc1ccc(OCC(=O)Nc2cc(-c3nn4c(C)nnc4s3)ccc2C)cc1,CDK2,binding,,,> 100 µM
O=C(O)c1ccc(S)nc1,"6-hydroxynicotinate 3-monooxygenase (nicC, Pseudomonas putida, UniProt Q88FY2)","binding, flavin absorbance titration",,,2700 ± 100 µM
CCN(CC)Cc1cn(Cc2ccc(C(=O)N[C@@H]3CCc4c(C#N)cccc43)cc2)nn1,WD repeat-containing protein 91 residues 392–747,SPR,,,2.7 µM
O=S(=O)(O)CCO,Uncharacterized protein,"binding, isothermal titration calorimetry",Candidatus Pelagibacter ubique,added: CaCl2 10 mM,0.391 ± 0.151 µM
N=C(N)SCc1ccc(CSC(=N)N)s1,"VPS26A/VPS35/VPS29 (Homo sapiens, UniProt O75436+Q96QK1+Q9UBQ0)",binding,,,18.2 ± 5 µM
FC(F)(F)c1ccc(-c2nnc(-c3cc4c(s3)CCCC4)o2)cn1,"dxs (Deinococcus radiodurans, UniProt Q9RUB5)","binding, SPR",,,no binding
Nc1ccccc1NC(=O)c1ccc(CNC(=O)OCc2cccnc2)cc1,MBLAC2,"inhibitor, competition pulldown",SW620 and MV4-11 lysate,1 h,> 30.2 µM
OC[C@H]1OC(O)[C@H](O)[C@@H](O)[C@@H]1O (stereo partly shown),"Hexokinase-3, N-terminal domain (HK3, Homo sapiens, UniProt P52790)","binding, intrinsic tryptophan fluorescence",,room temperature,3200 ± 400 µM
CCc1ccccc1NC(=O)CSc1nnc(-c2cccc(OC)c2)n1C,CDK2 with cyclin A,,,,> 100 µM
N#Cc1cccc2c1CC[C@H]2NC(=O)c1ccc(S(=O)(=O)NCc2ccco2)cc1,WD repeat-containing protein 91 residues 392–747,SPR,,,8.7 µM and 9 µM
CCOC(=O)Nc1ccc(NCc2ccc(F)cc2)nc1N,"PLCG2 (Homo sapiens, UniProt P16885)","binding, surface plasmon resonance",,"25 °C, immobilised residues 1-1195",~20 µM
CC(C)N(CCC(=O)c1ccc2ccccc2c1)Cc1ccccc1,PPIA,HDX MALDI-MS,,,4 µM
O=C1COc2cc(C(=O)N(Cc3ccc(C(=O)Nc4ccncn4)cc3)C3CC3)ccc2N1,"Histone-lysine N-methyltransferase NSD3, PWWP1 domain (NSD3, Homo sapiens, UniProt Q9BZ95)","binding, SPR",,,> 30 µM
O=C(C[C@@H](C(F)F)n1ccc(F)n1)N1CCC(O)(Cn2cnc3c(cnn3-c3ccc(F)cc3)c2=O)CC1,"USP7 (Homo sapiens, UniProt Q93009, V517Y)",isothermal titration calorimetry,,USP7 V517Y,1.12 ± 0.362 µM
CC[C@H](C)[C@H](NC(=O)[C@H](CC(C)C)NC(=O)[C@H](Cc1ccc(OP(=O)(O)O)cc1)NC(=O)[C@H](CCC(=O)O)NC(=O)[C@H](CC(=O)O)NC(=O)[C@H](C)NC(=O)[C@H](CC(=O)O)NC(=O)[C@@H](NC(=O)[C@@H](NC(=O)[C@H](CC(=O)O)NC(=O)[C@H](CC(=O)O)NC(=O)[C@H](CCSC)NC(=O)c1ccc2c(c1)C(=O)OC21c2ccc(N(C)C)cc2Oc2cc(N(C)C)ccc21)C(C)C)C(C)C)C(=O)N1CCC[C@H]1C(=O)N[C@@H](CCC(N)=O)C(=O)N[C@@H](CCC(N)=O)C(=O)NCC(=O)N[C@@H](Cc1ccccc1)C(=O)N[C@@H](CC(=O)O)C(=O)O,"1-phosphatidylinositol 4,5-bisphosphate phosphodiesterase gamma-1, SH2 domains (PLCG1, Homo sapiens, UniProt P19174)",binding,,,0.794 µM
O=C(CSc1nnc(-c2ccc([N+](=O)[O-])cc2)n1-c1ccccc1)N1CCOCC1,CDK2,binding,,,> 100 µM
O=C(CCCCCCNC(=O)c1cnc(N(c2ccccc2)c2ccccc2)nc1)NO,MBLAC2,"inhibitor, competition pulldown",SW620 and MV4-11 lysate,1 h,1.52 µM
CCn1c(SCC(=O)Nc2cccc(OC)c2)nnc1-c1ccncc1,CDK2,binding,,,> 100 µM
O=S(=O)(O)C[C@@H](O)CO,Uncharacterized protein,isothermal titration calorimetry,Candidatus Pelagibacter ubique,added: CaCl2 10 mM,2.72 µM and 1.81 µM
Cn1cc(CNCC2CCN(c3ncc(C(=O)NO)cn3)CC2)c2ccccc21,MBLAC2,"inhibitor, competition pulldown",SW620 and MV4-11 lysate,1 h,1.45 µM
O=C(O)c1cccc(C(=O)O)n1,calcium ion,isothermal titration calorimetry,,,38.5 ± 3 µM
O=C(O)CCN1C(=O)C(=Cc2ccc(F)cc2)SC1=S,PPIA,H/D exchange MALDI-MS,,"~100 µM, CypA ~10 µM, pD 7.4",no binding
N#Cc1cccc2c1CC[C@H]2NC(=O)c1ccc(-c2ccco2)[nH]1,WD repeat-containing protein 91 residues 392–747,SPR,,,13 µM and 5.2 µM
O=C(CC1OCCN(Cc2ccccc2)C1=O)Nc1ccc2c(c1)OCCO2 (stereo not shown),CDK2 with cyclin A,,,,> 100 µM
COc1ccc([C@H]2Sc3ccccc3N(CCN(C)C)C(=O)[C@H]2OC(C)=O)cc1,cone cGMP-gated channel Ictalurus punctatus,"channel current, blocker, inside-out patch clamp",,"pH 7.6, +30 mV, 120 mM NaCl, low divalent, added: 1 mM cGMP",8.7 ± 9.8 µM
CCCCc1nc2cc(/C=C/C(=O)NO)ccc2n1CCN(CC)CC,MBLAC2,"inhibitor, competition pulldown",SW620 and MV4-11 lysate,1 h,0.544 µM
COc1cccc(-n2nnnc2SCC(=O)Nc2c(C)cc(C)cc2C)c1,CDK2 with cyclin A,,,,> 100 µM
OC[C@H]1OC(O)[C@H](O)[C@@H](O)[C@@H]1O (stereo partly shown),"Interferon regulatory factor 6 (IRF6, Homo sapiens, UniProt O14896, N106A)",microscale thermophoresis,,,not detected

# Some of these lines once more:
SMILES,target,test,test system,setting,Kd
N=C(N)SCc1ccc(CSC(=N)N)s1,"VPS26A/VPS35/VPS29 (Homo sapiens, UniProt O75436+Q96QK1+Q9UBQ0)",binding,,,18.2 ± 5 µM
O=C(CSc1nnc(-c2ccc([N+](=O)[O-])cc2)n1-c1ccccc1)N1CCOCC1,CDK2,binding,,,> 100 µM
CC(C)N(CCC(=O)c1ccc2ccccc2c1)Cc1ccccc1,PPIA,HDX MALDI-MS,,,4 µM
CCc1ccccc1NC(=O)CSc1nnc(-c2cccc(OC)c2)n1C,CDK2 with cyclin A,,,,> 100 µM
O=C1C=CC(=O)N1c1cc(Cl)cc(Cl)c1,PPIA,HDX MALDI-MS,,,≤ 10 µM
CC[C@H](C)[C@H](NC(=O)[C@H](CC(C)C)NC(=O)[C@H](Cc1ccc(OP(=O)(O)O)cc1)NC(=O)[C@H](CCC(=O)O)NC(=O)[C@H](CC(=O)O)NC(=O)[C@H](C)NC(=O)[C@H](CC(=O)O)NC(=O)[C@@H](NC(=O)[C@@H](NC(=O)[C@H](CC(=O)O)NC(=O)[C@H](CC(=O)O)NC(=O)[C@H](CCSC)NC(=O)c1ccc2c(c1)C(=O)OC21c2ccc(N(C)C)cc2Oc2cc(N(C)C)ccc21)C(C)C)C(C)C)C(=O)N1CCC[C@H]1C(=O)N[C@@H](CCC(N)=O)C(=O)N[C@@H](CCC(N)=O)C(=O)NCC(=O)N[C@@H](Cc1ccccc1)C(=O)N[C@@H](CC(=O)O)C(=O)O,"1-phosphatidylinositol 4,5-bisphosphate phosphodiesterase gamma-1, SH2 domains (PLCG1, Homo sapiens, UniProt P19174)",binding,,,0.794 µM
